Measured values gathered from unrelated publications.
Protocols differ between the studies behind these lines.

`C[C@@H](Nc1cc(F)cc(F)c1)c1cc(C(=O)N(C)C)cc2c(=O)cc(N3CCOCC3)oc12` — result for “patients discontinuing for AE”: 0% (CTCAE v4, item: deep vein thrombosis; patients with advanced solid tumours; oral, dose not given, phase I dose expansion).
`Cc1cc(NC2CCN(C(=O)OC3CCN(C(=O)/C=C/CN(C)C)C3)CC2)n2ncc(C(C)C)c2n1` (stereo not shown) — result for “patients with adverse event”: 16% (Phase I dose escalation CTCAE v4.0, item: AST increased; patients with advanced solid tumours; dose not given, QD dosing any grade).
For `FC(F)(F)c1ccc(CNc2ccc(Cc3c[nH]c4ncc(Cl)cc34)cn2)cn1`, “patients with treatment-related adverse event” read 0% (item: hair colour changes; patients with TGCT; oral, 1000 mg/day, grade 3 or higher).
`C[C@@H](c1ccc2nccn2c1)n1nnc2ncc(-c3cnn(C)c3)nc21` — result for “patients with adverse events”: 0% (item: treatment-related grade ≥3 Myalgia; EGFR-mutant MET-altered NSCLC; oral, dose not given).
`O=C(Nc1nc2cccc(-c3ccc(CN4CCS(=O)(=O)CC4)cc3)n2n1)C1CC1`: “patients with body temperature increased” 0% (rheumatoid arthritis patients; oral, 100 mg twice daily, 4 weeks, regardless of relatedness).
`NC(=O)N1c2ccccc2C=Cc2ccccc21` — result for “patients with Constipation”: 20% (male patients; oral, dose not given, on-treatment adverse events).
Under “patients with adverse event”, `COc1cc(Nc2ncc3c(n2)-c2ccc(Cl)cc2C(c2c(F)cccc2OC)=NC3)ccc1C(=O)O` is recorded as 17% (item: Diarrhea, grade 1; cancer patients, phase 1/2; oral, dose not given, with: pembrolizumab).
For `CCOc1c([C@H](C)n2nc(C)c3c(N)ncnc32)cc(Cl)c(F)c1[C@@H]1CNC(=O)C1`, the patients was 100% (item: QTcF change ≤30 ms; previously treated B-cell malignancy; oral, 20 mg once daily, baseline QTcF ≤450 ms; baseline: baseline).
Under “patients with adverse event”, `CNC(=O)c1ccc(-c2cnc3ncc(Cc4ccc5ncccc5c4)n3n2)cc1F` is recorded as 0% (item: Cough; hepatocellular carcinoma patients; oral, 600 mg twice daily, expansion cohort, grade 3-4).
`COc1ccc([C@@H](O)c2cc(-c3ncnc4cc(N5CCOCC5)ccc34)c(F)cc2Cl)nn1` — result for “patients with drug-related AE”: 26% (item: Nausea; locally advanced rectal cancer patients; dose not given, all dose groups, with: capecitabine plus radiotherapy).
